Assay results collected from several papers.
Compare with care: the assays were run in different laboratories. Several values in a cell are separate wells, animals, samples, runs or records. ± gives the spread as reported.
UniProt P21554, sequence (whole entry, unmodified, looked up): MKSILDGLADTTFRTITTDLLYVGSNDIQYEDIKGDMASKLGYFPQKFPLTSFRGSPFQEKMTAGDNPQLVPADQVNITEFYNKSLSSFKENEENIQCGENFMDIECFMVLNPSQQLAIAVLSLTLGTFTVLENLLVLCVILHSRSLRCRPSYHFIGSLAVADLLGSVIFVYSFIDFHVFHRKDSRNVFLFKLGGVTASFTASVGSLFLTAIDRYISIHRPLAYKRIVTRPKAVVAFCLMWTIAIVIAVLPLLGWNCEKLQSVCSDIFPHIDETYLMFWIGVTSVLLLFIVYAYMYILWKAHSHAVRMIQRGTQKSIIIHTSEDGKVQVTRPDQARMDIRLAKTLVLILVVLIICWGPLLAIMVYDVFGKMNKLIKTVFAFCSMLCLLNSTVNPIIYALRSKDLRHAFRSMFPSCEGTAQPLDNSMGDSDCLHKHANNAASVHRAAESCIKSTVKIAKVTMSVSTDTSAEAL
UniProt P21728, sequence (whole entry, looked up): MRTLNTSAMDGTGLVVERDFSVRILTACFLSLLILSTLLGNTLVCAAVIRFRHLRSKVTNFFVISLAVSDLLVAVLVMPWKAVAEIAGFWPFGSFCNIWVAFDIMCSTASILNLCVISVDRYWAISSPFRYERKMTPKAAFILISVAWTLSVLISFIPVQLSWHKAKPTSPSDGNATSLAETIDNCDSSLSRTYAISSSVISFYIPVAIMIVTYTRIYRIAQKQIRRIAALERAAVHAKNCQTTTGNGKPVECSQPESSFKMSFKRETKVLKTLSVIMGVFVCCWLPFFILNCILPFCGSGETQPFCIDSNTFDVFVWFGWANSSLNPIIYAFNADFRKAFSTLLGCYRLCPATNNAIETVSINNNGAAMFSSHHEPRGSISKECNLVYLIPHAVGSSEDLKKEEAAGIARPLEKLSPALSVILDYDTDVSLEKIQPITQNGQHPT
UniProt P41143, sequence (whole entry, unmodified, looked up): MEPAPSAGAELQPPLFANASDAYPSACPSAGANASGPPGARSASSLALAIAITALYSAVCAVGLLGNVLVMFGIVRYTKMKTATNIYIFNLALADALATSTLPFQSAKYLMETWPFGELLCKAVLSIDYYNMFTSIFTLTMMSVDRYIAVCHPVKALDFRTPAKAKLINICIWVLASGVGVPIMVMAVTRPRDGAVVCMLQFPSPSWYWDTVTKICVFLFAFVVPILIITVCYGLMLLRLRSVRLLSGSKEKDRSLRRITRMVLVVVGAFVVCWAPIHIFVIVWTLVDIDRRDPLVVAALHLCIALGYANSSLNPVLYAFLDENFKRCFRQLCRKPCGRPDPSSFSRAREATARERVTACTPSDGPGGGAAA
UniProt Q01959, sequence (whole entry, unmodified, looked up): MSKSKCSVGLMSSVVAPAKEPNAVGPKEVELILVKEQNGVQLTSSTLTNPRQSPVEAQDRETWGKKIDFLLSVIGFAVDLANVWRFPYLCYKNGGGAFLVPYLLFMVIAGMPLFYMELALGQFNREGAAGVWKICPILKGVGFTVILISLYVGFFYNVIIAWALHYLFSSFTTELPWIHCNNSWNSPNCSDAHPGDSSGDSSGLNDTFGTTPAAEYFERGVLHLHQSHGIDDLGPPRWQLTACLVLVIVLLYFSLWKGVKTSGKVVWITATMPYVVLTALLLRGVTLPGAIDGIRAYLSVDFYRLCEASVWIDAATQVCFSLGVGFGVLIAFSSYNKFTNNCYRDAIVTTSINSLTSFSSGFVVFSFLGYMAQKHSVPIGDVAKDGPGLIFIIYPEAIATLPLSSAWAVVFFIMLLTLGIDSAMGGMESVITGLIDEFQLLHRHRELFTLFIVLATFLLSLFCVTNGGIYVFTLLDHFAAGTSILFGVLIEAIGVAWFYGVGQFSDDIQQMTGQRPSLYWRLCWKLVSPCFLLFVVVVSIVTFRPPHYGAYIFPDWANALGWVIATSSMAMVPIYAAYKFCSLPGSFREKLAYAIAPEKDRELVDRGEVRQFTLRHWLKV
UniProt P34972, sequence (whole entry, unmodified, looked up): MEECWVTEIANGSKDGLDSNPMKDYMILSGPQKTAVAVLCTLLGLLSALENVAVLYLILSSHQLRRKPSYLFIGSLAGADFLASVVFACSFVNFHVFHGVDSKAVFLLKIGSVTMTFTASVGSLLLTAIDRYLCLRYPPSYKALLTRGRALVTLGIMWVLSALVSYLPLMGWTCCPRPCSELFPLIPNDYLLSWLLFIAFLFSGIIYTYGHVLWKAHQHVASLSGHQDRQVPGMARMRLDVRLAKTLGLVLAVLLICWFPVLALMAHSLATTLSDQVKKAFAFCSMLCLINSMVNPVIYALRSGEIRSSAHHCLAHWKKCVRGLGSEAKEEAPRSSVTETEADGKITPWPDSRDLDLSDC
UniProt P41586, sequence (whole entry, looked up): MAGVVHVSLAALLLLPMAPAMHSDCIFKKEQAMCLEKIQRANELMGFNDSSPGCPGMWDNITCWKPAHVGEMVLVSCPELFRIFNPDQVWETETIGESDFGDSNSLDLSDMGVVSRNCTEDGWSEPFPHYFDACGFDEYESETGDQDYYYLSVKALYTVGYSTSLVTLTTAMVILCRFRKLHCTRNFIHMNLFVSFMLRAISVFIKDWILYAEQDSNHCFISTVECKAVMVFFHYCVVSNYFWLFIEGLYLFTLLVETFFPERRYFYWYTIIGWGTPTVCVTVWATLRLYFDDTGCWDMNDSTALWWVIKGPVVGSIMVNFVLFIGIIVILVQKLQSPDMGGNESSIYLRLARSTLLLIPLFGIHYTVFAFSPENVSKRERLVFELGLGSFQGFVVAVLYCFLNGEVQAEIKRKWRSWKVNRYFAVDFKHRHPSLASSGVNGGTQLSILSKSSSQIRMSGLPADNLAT
UniProt P70343, sequence (whole entry, looked up): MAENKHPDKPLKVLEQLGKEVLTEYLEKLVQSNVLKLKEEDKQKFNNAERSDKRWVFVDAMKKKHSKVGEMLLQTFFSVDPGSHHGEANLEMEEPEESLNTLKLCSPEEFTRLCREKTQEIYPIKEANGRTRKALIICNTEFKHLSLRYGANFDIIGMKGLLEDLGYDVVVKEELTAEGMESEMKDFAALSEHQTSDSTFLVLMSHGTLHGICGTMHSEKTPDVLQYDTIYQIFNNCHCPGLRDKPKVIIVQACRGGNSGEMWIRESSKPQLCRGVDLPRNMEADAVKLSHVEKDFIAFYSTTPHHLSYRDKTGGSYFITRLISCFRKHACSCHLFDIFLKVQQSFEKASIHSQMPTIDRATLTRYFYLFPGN

`CC(C)CC(C(=O)N1CC2(CC1C#N)C(=O)Nc1ccccc12)N(C)C(=O)c1cc2c(F)cc(F)c(F)c2[nH]1` (centres unmarked) has an IC50 of > 100 µM (Caspase-4 (Casp4, Mus musculus, UniProt P70343); enzyme activity, inhibitor).
For `Cc1ccc2c(C(C[N+](=O)[O-])c3cccs3)c(-c3ccccc3)[nH]c2c1` (centres unmarked), the EC50 was 170 nM (CNR1 (Homo sapiens, UniProt P21554, I245M); G protein activation, agonist, BRET).
The Ki of `CCN(CC)C(=O)[C@@H]1C=C2c3cccc4c3c(cn4C(=O)c3ccco3)C[C@H]2N(C)C1` is reported as 1980 nM and 1990 nM (DRD1 (Homo sapiens, UniProt P21728); ligand displacement, radioligand).
With `CCCCCn1cc(C(=O)c2ccc3ccccc3c2)c2ccccc21` the EC50 was 129 nM (CNR2 (Homo sapiens, UniProt P34972, V261L); cAMP, agonist, BRET).
`CCC[C@@H](C(=O)c1ccccc1)N1CCCC1` gave a Ki of 27 nM (SLC6A3 (Homo sapiens, UniProt Q01959, S149A); transporter uptake, inhibitor, radiometric).
`CC[C@H](C)[C@H](NC(=O)[C@H](CO)NC(=O)[C@H](CC(N)=O)NC(=O)[C@H](CC(C)C)NC(=O)[C@H](Cc1ccc(O)cc1)NC(=O)[C@H](CCCCN)NC(=O)[C@H](CCCCN)NC(=O)[C@@H](NC(=O)[C@H](C)NC(=O)[C@H](CCSC)NC(=O)[C@H](CCC(N)=O)NC(=O)[C@H](CCCCN)NC(=O)[C@H](CCCN=C(N)N)NC(=O)[C@H](CC(C)C)NC(=O)[C@H](CCCN=C(N)N)NC(=O)[C@@H](NC(=O)[C@H](Cc1ccc(O)cc1)NC(=O)[C@H](CC(N)=O)NC(=O)[C@H](CC(=O)O)NC(=O)[C@@H](NC(=O)[C@H](Cc1ccccc1)NC(=O)[C@@H](NC(=O)[C@H](C)NC(=O)[C@H](CC(=O)O)NC(=O)[C@H](CO)NC(=O)[C@@H](N)Cc1c[nH]cn1)C(C)C)[C@@H](C)O)[C@@H](C)O)C(C)C)C(=O)N[C@@H](CC(C)C)C(=O)N[C@@H](CC(N)=O)C(N)=O` gave an EC50 of 11.2 nM (ADCYAP1R1 (Homo sapiens, UniProt P41586); cAMP production, agonist; COS-7; 37 °C, AUC over 20 min).
The EC50 of `COc1ccccc1C(C[N+](=O)[O-])c1c(-c2ccccc2)[nH]c2ccccc12` (centres unmarked) is reported as 580 nM (CNR1 (Homo sapiens, UniProt P21554, I245A); G protein activation, agonist, BRET).
For `CCN(CC)C(=O)c1ccc(C(c2cccc(O)c2)N2CC(C)N(Cc3ccccc3)CC2C)cc1` (centres unmarked), the Ki was 0.35 ± 0.15 nM (OPRD1 (Homo sapiens, UniProt P41143, N90S)).

Some of these lines once more:
The EC50 of `COc1ccccc1C(C[N+](=O)[O-])c1c(-c2ccccc2)[nH]c2ccccc12` (centres unmarked) is reported as 580 nM (CNR1 (Homo sapiens, UniProt P21554, I245A); G protein activation, agonist, BRET).
